Assay results from different studies.
Values joined by “and” are separate records of one study, mostly repeats; a detail may differ. ± gives the spread as reported.
pyrD: Dihydroorotate dehydrogenase (quinone) (pyrD, Acinetobacter baumannii, UniProt B7GZW7)
Kir3.1/Kir3.4: Kir3.1/Kir3.4 (Homo sapiens, UniProt P48544+P48549)
AKR1B1: Aldo-keto reductase family 1 member B1 (AKR1B1, Homo sapiens, UniProt P15121)
GUK1: GUK1 (Homo sapiens, UniProt Q16774)
T1: riboswitch RNA yjdF aptamer domain (Bacillus subtilis); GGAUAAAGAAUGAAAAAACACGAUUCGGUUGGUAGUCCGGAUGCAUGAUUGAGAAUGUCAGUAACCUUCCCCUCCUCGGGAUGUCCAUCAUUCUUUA

SMILES	tested on	test	test system	conditions	how to read	quantity	value
C[C@@H](N)C(=O)Nc1ccc2ccccc2c1	rat aminopeptidase III	substrate		concentration not given, pH 7.0		hydrolysis	inactive
COc1ccccc1-c1n[nH]c2nc(N[C@H]3CC[C@H](NS(=O)(=O)CCCOCCOCCNC(=O)OC(C)(C)C)CC3)ncc12	cdc2-related kinase 6 (Leishmania donovani, UniProt A0A3Q8IPR6)	resin binding, SILAC competition pull-down, refers to: CRK6	Leishmania donovani extract	10 µM	reference: heavy over light	log2 fold change	4.23
N[C@@H](Cc1c[nH]cn1)C(=O)O		binding, MIDAS equilibrium dialysis LC-MS	A2AR-BRIL thermostabilized	concentration not given	reference: no-protein control	log2 fold change	-0.0826
CC(NC(=O)CCCc1ccc2ccc3cccc4ccc1c2c34)C(=O)NO (stereo not drawn)	Histone deacetylase 8 (HDAC8, Homo sapiens, UniProt Q9BY41)	ITC	Tris buffer	pH 7.5		TΔS	5.3 kcal/mol
Cc1cc(Nc2ccc(C(F)(F)F)c(F)c2)n2ncnc2n1	pyrD	enzyme activity, inhibitor, colorimetric HTS, refers to: DCIP reduction		3 µM	direction not given	robust Z-score	20.2
CC(=C/C(=O)O)/C=C/C=C(\C)C1C=C2C(C)(C)CCCC2(C)O1 (stereo not drawn)	Rhodopsin (RHO, Homo sapiens, UniProt P08100, E181K)	ER retention, immunostaining co-localization, refers to: opsin with calnexin	COS-7 transfected E181K	0.05 µM		Pearson correlation coefficient	0.81
O=C(O)C1CCCNC1 (stereo not drawn)	Sodium- and chloride-dependent taurine transporter (SLC6A6, Homo sapiens, UniProt P31641, Y138A)	binding, microscale thermophoresis		31.3 µM, room temperature, together with: 50 nM labelled protein	higher = more binding	normalised MST signal	0.572
[O-][S+]1CCCCS1 (stereo not drawn)	Superoxide dismutase [Cu-Zn] (SOD1, Homo sapiens, UniProt P00441, G94A)	LC-MS	human whole blood	5 µM, 1 h, 37 °C		SOD1 dimer fraction	0.55%
CCCCC/C=C\C/C=C\C/C=C\C/C=C\CCCC(=O)O	Cytochrome P450 2J2 (CYP2J2, Homo sapiens, UniProt P51589, L2A)	substrate		50 µM		metabolism rate	50 ± 4.1 pmol/min/nmol CYP2J2
CN(C)c1ccc(C(=C2C=CC(=[N+](C)C)C=C2)c2ccccc2)cc1	T1, riboswitch RNA yjdF aptamer domain (Bacillus subtilis)	fluorescence titration				Kd	26 nM
COc1cc(NC(=O)c2ccccn2)ccc1/N=N/c1ccccc1Cl	Metabotropic glutamate receptor 3 (GRM3, Homo sapiens, UniProt Q14832)	positive allosteric modulator, IP accumulation	HEK293	30 µM, in the dark, together with: low-dose orthosteric agonist		activation	-23.6%
O=C(COc1ccc(Cl)cc1Cl)Nc1cc(C2CC2)nn1C1CCC(F)(F)CC1	Kir3.1/Kir3.4	thallium flux, activator	HEK293		reference: standard compound	Emax	46%
NCCCC(=O)O	Sodium- and chloride-dependent taurine transporter (SLC6A6, Homo sapiens, UniProt P31641, G62A)	binding, microscale thermophoresis		122 nM, room temperature, together with: 50 nM labelled protein	higher = more binding	normalised MST signal	-0.0624
Nc1ncnc2c1ncn2[C@@H]1O[C@H](COP(=O)(O)CP(=O)(O)OP(=O)(O)O)[C@@H](O)[C@H]1O	P2X purinoceptor 1 (P2RX1, Homo sapiens, UniProt P51575, M214A)	saturation binding	HEK293	1 nM		specific binding	39.5 CCPM and 5 CCPM and 25 CCPM
CCCCC[C@H](O)/C=C/[C@H]1[C@H](O)CC(=O)[C@@H]1C/C=C\CCCC(=O)O	Prostaglandin E2 receptor EP1 subtype (PTGER1, Homo sapiens, UniProt P34995, S42A)	IP1 accumulation, agonist	AD293	1 h, EP1 S42A mutant		Emax	93.3 ± 5.16%
O=C(COc1cccc(Cl)c1Cl)Nc1cc(C2CC2)nn1C1CCC(F)(F)CC1	Kir3.1/Kir3.4	thallium flux, activator	HEK293		reference: standard compound	Emax	36%
CC(=O)NCCCC[C@H](NC(=O)[C@H](CC(=O)O)NC(=O)[C@H](CO)NC(C)=O)C(=O)Nc1ccc2c(C)cc(=O)oc2c1	human Y386F mutant enzyme	substrate, fluorogenic				Km	26 ± 9 µM
CCn1c(-c2nc3ccc(C(=O)N4CCCC(N)C4)cc3n2C)cc2ccccc21 (stereo not drawn)	Protein-arginine deiminase type-4 (PADI4, Homo sapiens, UniProt Q9UM07)	binding, competitor, chemoproteomic pulldown immunoblot		10 µM		bead pulldown of target	no effect
CN(C)CC(=O)O		binding, MIDAS equilibrium dialysis LC-MS	A2AR-BRIL thermostabilized	concentration not given	reference: no-protein control	log2 fold change	-0.122
O=C(CN1C(=O)S/C(=C\c2ccc(F)cc2)C1=O)c1ccc([N+](=O)[O-])cc1	AKR1B1	enzyme activity, inhibitor				log IC50	2.76 log nM

SMILES	tested on	test	test system	conditions	how to read	quantity	value
CCOc1nc2nc(C)cc(Nc3cc(F)c(C(F)(F)F)c(F)c3)n2n1	pyrD	enzyme activity, inhibitor, colorimetric HTS, refers to: DCIP reduction		3 µM	direction not given	robust Z-score	18.7
NC/C(=C\F)COc1cccc(Cn2c(=S)[nH]c(=O)c3[nH]cnc32)c1	Myeloperoxidase (MPO, Homo sapiens, UniProt P05164)	H2O2 consumption, inhibitor, H2O2 electrode		0.25 µM, 0.3 s		H2O2 concentration	-0.318 µM
CCc1nc2nc(C)cc(Nc3ccc(I)cc3)n2n1	pyrD	enzyme activity, inhibitor, colorimetric HTS, refers to: DCIP reduction		3 µM	direction not given	robust Z-score	15.5
Nc1nc2c(ncn2[C@@H]2O[C@H](COP(=O)(O)O)[C@@H](O)[C@H]2O)c(=O)[nH]1	GUK1	enzyme activity, NADH-coupled		250 µM, together with: NaCl 150 mM		reaction velocity	0.0745 µM/s and 0.0744 µM/s and 0.0702 µM/s
O=c1nc(SCc2cc(F)cc(C(F)(F)F)c2)nc(SCc2ccc3sccc3c2)[nH]1	DNA topoisomerase 2-alpha (TOP2A, Homo sapiens, UniProt P11388)	DNA cleavage		7.8 µM, replicate 2		linear DNA	0%
C[C@]12C[C@H](O)[C@H]3[C@@H](CCC4=CC(=O)CC[C@@]43C)[C@@H]1CC[C@@H]2C(=O)CO	Cytochrome P450 11B1, mitochondrial (CYP11B1, Homo sapiens, UniProt P15538)	stopped-flow	nanodiscs	together with: excess cyclodextrin		koff	> 6 s⁻¹
NS(=O)(=O)NCCNc1nonc1C(=NO)Nc1ccc(F)c(Br)c1	Indoleamine 2,3-dioxygenase 1 (IDO1, Homo sapiens, UniProt P14902)	thermal stability, nanoDSF		50 µM, 1% DMSO, no DTT, together with: unlabelled protein 2.5 µM		ΔTi	4.2 °C
Nc1ncnc2c1ncn2[C@@H]1O[C@H](COP(=O)(O)OP(=O)(O)O)[C@@H](O)[C@H]1O	Creatine kinase U-type, mitochondrial (CKMT1A, Homo sapiens, UniProt P12532, E264A)	substrate, Kinase-Glo luminescence		pH 7.0, reverse reaction, E226A mutant, together with: second substrate in excess		kcat	< 0.0001 s⁻¹
COc1ccc(/C=C2\SC(=O)N(Cc3nc4ccccc4s3)C2=O)cc1OC	AKR1B1	enzyme activity, inhibitor				Hill slope	-0.805
Nc1ncnc2c1ncn2[C@@H]1O[C@H](COP(=O)(O)OP(=O)(O)OP(=O)(O)O)[C@@H](O)[C@H]1O	P2X purinoceptor 7 (P2rx7, Rattus norvegicus, UniProt Q64663, I214A/R125A)	ion current, agonist, two-electrode voltage clamp	Xenopus laevis oocytes	11 µM	reference: highest concentration response	normalized current	0.0244 and 0.0526 and 0.037
O=C1S/C(=C\c2ccc(Br)cc2)C(=O)N1Cc1nc2ccccc2s1	AKR1B1	enzyme activity, inhibitor				Hill slope	-0.424
O=C(COc1ccc(Cl)cc1Cl)Nc1cc(C2CCC2)nn1CC(F)(F)F	Kir3.1/Kir3.4	activator, thallium flux	HEK293	concentration not given		activity	inactive
Nc1nc(=O)n([C@H]2C[C@H](O)[C@@H](CO)O2)cc1CCCNC[C@H]1O[C@@H](n2cnc3c(N)ncnc32)[C@H](O)[C@@H]1O	DNA (cytosine-5)-methyltransferase 1 (DNMT1, Homo sapiens, UniProt P26358)	radiometric [3H]-SAM		concentration not given, together with: SAM, poly(dI-dC)		inhibition type	inhibited
NCCCC[C@H](N)C(=O)Nc1ccc2ccccc2c1	rat aminopeptidase III	substrate		MW 110 kDa		kcat	5.17 s⁻¹
Cc1cc(Nc2ccc(C(C)(C)C)c(F)c2)n2ncnc2n1	pyrD	enzyme activity, inhibitor, colorimetric HTS, refers to: DCIP reduction		3 µM	direction not given	robust Z-score	23.4
O=C(Nc1ccccc1OS(=O)(=O)c1cccs1)c1ccc2ncccc2c1	P2X purinoceptor 4 (P2RX4, Homo sapiens, UniProt Q99571)	calcium mobilization	MCF7 stably transfected	100 µM, together with: ATP 100 µM		fluorescence increase	83.1 ± 1.44%
[Cl-].[K+]	GUK1	enzyme activity, NADH-coupled		15 mM		reaction velocity	0.0673 µM/s and 0.0525 µM/s and 0.0587 µM/s
COc1cc(F)cc2c(N3CCN4c5ccccc5NCC4C3)c(C#N)nnc12 (stereo not drawn)	Metabotropic glutamate receptor 7 (Grm7, Rattus norvegicus, UniProt P35400)	positive allosteric modulator	cell-based	together with: L-AP4 EC20	reference: L-AP4 maximum	maximal response	55%
N#Cc1ccc2c(-c3ccncc3)c(-c3ccc(F)cc3)nn2c1	Cyclin-dependent kinase 1 (CDC28, Candida albicans, UniProt P43063)	kinase binding, competitor, MIB/MS competition, refers to: CDC28	Candida albicans cell lysate	10 µM	reference: DMSO	log2 fold change	0.213

Repeated from above:
SMILES	tested on	test	test system	conditions	how to read	quantity	value
CN(C)CC(=O)O		binding, MIDAS equilibrium dialysis LC-MS	A2AR-BRIL thermostabilized	concentration not given	reference: no-protein control	log2 fold change	-0.122
COc1ccccc1-c1n[nH]c2nc(N[C@H]3CC[C@H](NS(=O)(=O)CCCOCCOCCNC(=O)OC(C)(C)C)CC3)ncc12	cdc2-related kinase 6 (Leishmania donovani, UniProt A0A3Q8IPR6)	resin binding, SILAC competition pull-down, refers to: CRK6	Leishmania donovani extract	10 µM	reference: heavy over light	log2 fold change	4.23
CN(C)c1ccc(C(=C2C=CC(=[N+](C)C)C=C2)c2ccccc2)cc1	T1, riboswitch RNA yjdF aptamer domain (Bacillus subtilis)	fluorescence titration				Kd	26 nM
CCc1nc2nc(C)cc(Nc3ccc(I)cc3)n2n1	pyrD	enzyme activity, inhibitor, colorimetric HTS, refers to: DCIP reduction		3 µM	direction not given	robust Z-score	15.5
NCCCC(=O)O	Sodium- and chloride-dependent taurine transporter (SLC6A6, Homo sapiens, UniProt P31641, G62A)	binding, microscale thermophoresis		122 nM, room temperature, together with: 50 nM labelled protein	higher = more binding	normalised MST signal	-0.0624
